Experimental data collected from several papers.
Lines come from different studies, so protocols differ.
TDP1: Tyrosyl-DNA phosphodiesterase 1 (TDP1, Homo sapiens, UniProt Q9NUW8)
Chain of UniProt Q9NUW8 (whole entry, looked up): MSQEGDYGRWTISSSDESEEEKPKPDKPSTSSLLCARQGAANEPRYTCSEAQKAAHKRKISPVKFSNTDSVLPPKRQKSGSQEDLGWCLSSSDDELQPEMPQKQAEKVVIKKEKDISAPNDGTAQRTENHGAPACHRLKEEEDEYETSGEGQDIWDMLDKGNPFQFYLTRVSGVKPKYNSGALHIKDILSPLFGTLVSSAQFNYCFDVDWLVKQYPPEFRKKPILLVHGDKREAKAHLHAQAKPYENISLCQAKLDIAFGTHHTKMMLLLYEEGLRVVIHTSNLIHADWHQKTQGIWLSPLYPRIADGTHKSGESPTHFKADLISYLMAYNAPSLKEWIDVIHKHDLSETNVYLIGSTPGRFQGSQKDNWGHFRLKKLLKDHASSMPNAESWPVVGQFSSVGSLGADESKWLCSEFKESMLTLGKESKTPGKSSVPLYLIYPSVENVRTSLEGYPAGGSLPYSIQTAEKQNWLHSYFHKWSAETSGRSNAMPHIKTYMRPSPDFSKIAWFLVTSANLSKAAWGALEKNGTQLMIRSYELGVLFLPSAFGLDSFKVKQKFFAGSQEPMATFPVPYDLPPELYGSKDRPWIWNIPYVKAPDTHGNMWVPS
T1: DNA aptamer; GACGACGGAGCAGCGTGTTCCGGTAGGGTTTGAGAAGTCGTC
T2: RNA, abasic bulge mismatch; chain CUAAUGGAAUG; chain CAUUUGGUUAG
T3: ssDNA; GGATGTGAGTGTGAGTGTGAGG
T4: dsDNA, duplex; chain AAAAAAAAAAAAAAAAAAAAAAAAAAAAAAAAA; chain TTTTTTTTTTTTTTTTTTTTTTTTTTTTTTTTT
T5: dsDNA, duplex; chain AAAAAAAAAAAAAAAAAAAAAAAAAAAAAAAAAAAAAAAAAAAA; chain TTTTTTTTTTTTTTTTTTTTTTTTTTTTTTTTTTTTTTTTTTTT
T6: DNA junction; chain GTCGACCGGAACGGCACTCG; chain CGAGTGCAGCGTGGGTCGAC; chain CCACGCTCGTTCCG
T7: RNA, abasic bulge, CUG repeat hairpin; GACAGCUGCUGUC
T8: RNA, base-paired repeat; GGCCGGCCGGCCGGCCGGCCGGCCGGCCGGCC
T9: RNase P RNA (Methanobrevibacter smithii); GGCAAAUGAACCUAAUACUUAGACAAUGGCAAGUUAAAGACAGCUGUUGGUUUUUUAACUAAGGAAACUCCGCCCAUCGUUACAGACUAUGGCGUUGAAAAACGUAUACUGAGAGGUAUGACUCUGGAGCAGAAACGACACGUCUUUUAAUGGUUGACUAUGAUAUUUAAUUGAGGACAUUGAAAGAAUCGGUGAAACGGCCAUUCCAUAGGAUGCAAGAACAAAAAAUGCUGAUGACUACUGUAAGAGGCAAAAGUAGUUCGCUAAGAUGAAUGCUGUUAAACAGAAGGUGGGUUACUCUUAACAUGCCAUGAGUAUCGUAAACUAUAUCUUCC
T10: dsDNA, duplex; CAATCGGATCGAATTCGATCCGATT
T11: dsDNA; chain CTGCACTAGGCACTACCG; chain CGGTAGTGCCTAGTGCAG

SMILES | target | assay | system | setting | endpoint | value
Cc1ccc2c(c1)sc(-c1ccc(N(C)C)cc1)[n+]2C | T1, DNA aptamer | ThT fluorescence | – | 500 nM, added: ThT 1 µM | binding | binds
Cc1ccc2ccc(NC(=O)OCCCNCc3ccc(/N=N\c4ccc(CNCCCOC(=O)Nc5ccc6ccc(C)nc6n5)cc4)cc3)nc2n1 | T2, RNA, abasic bulge mismatch | thermal melting | – | – | binding | no binding
O=C(O)c1ccc(Nc2c(-c3ccc(CON=Cc4cc5ccccc5c5ccccc45)cc3)nc3cc(-c4ccccc4)ccn23)cc1 (mixture of isomers) | TDP1 | enzyme activity, inhibitor | – | 100 µM, unpurified compound | inhibition | 18.8%
CC(=O)c1cnc(N)nc1N1CC[C@H]1c1nn2ccc(Cl)c2c(=O)n1-c1ccccc1 | Phosphatidylinositol-4,5-bisphosphate 3-kinase, catalytic subunit gamma (Rattus norvegicus, UniProt D3ZFJ0) | KiNativ | rat whole blood cells | 0.001 µM, 1 h | binding | 10%
CN(C)c1ccc(C2=C/C(=C/C=C/c3sc4ccccc4[n+]3C)c3ccccc3O2)cc1 | T3, ssDNA | fluorescence turn-on | – | – | binding | no binding
CCCCCCCCn1c(CC)c(C)[n+](CCCCCCCC)c1CCC | T4, dsDNA, duplex | thermal melting real-time PCR | – | 0-100 µM, K+ 100 mM | binding | binds
Cc1ccc2ccc(NC(=O)OCCCN(CCCOC(=O)Nc3ccc4ccc(C)nc4n3)Cc3ccc(/N=N\c4ccc(CN(CCCOC(=O)Nc5ccc6ccc(C)nc6n5)CCCOC(=O)Nc5ccc6ccc(C)nc6n5)cc4)cc3)nc2n1 | T2, RNA, abasic bulge mismatch | CD spectra | – | induced CD, irradiated | binding | binds
CCCc1n(Cc2ccc(Br)cc2)c2c([n+]1Cc1ccc(Br)cc1)CCCC2 | T5, dsDNA, duplex | competition with EtBr, competitor, EtBr displacement fluorescence | – | Na+ 50 mM, added: EtBr | binding | binds
C(=NC(COCc1ccc2oc3ccc(COCC(N=Cc4ccccn4)c4ccccc4)cc3c2c1)c1ccccc1)c1ccccn1.C(=NC(COCc1ccc2oc3ccc(COCC(N=Cc4ccccn4)c4ccccc4)cc3c2c1)c1ccccc1)c1ccccn1.C(=NC(COCc1ccc2oc3ccc(COCC(N=Cc4ccccn4)c4ccccc4)cc3c2c1)c1ccccc1)c1ccccn1.[Fe+2].[Fe+2] (stereo not shown) | T6, DNA junction | AFM | – | – | binding | binds
NCCN1CCN=C1c1ccc(C(=O)Nc2ccc(C3=NCCN3)cc2)cc1 | T7, RNA, abasic bulge, CUG repeat hairpin | NMR | – | 35 °C | binding | binds
O=C(CN1CCCN(C(=O)CN2CCCN(Cc3cccc4cnccc34)CC2)CC1)NCCCOCCNCCOCCCNC(=O)CN1CCCN(C(=O)CN2CCCN(Cc3cccc4cnccc34)CC2)CC1 | T8, RNA, base-paired repeat | BLI | – | – | binding | binds weakly
O=C(O)c1ccc(Nc2c(-c3ccccc3)nc3ccc(CON=CC(=CNc4ccc(Cl)cn4)c4nc5ccccc5o4)cn23)cc1 | TDP1 | enzyme activity, inhibitor | – | 100 µM, unpurified compound | inhibition | 57.6%
COc1ccccc1[C@]1(O)C[C@H](c2ccc(C)cc2)N[C@H](c2ccc(C)cc2)[C@H]1C | T9, RNase P RNA (Methanobrevibacter smithii) | WaterLOGSY NMR | – | – | binding | binds
O=C(CN1CCCN(C(=O)CN2CCCN(Cc3cccc4cnccc34)CC2)CC1)NCCNCCNC(=O)CN1CCCN(C(=O)CN2CCCN(Cc3cccc4cnccc34)CC2)CC1 | T8, RNA, base-paired repeat | BLI | – | – | binding | binds weakly
CN(C)c1ccc(/C=C/C=C/c2cc(-c3ccc(N(C)C)cc3)[o+]c3ccccc23)cc1 | T10, dsDNA, duplex | fluorescence turn-on | – | – | binding | binds
N=C(N)NCCCCNc1nc(N)nc(NCCCCNC(=N)N)n1 | T11, dsDNA | ITC | – | – | binding | binds weakly

A few entries again:
SMILES | target | assay | system | setting | endpoint | value
CC(=O)c1cnc(N)nc1N1CC[C@H]1c1nn2ccc(Cl)c2c(=O)n1-c1ccccc1 | Phosphatidylinositol-4,5-bisphosphate 3-kinase, catalytic subunit gamma (Rattus norvegicus, UniProt D3ZFJ0) | KiNativ | rat whole blood cells | 0.001 µM, 1 h | binding | 10%
